Results collected from several papers.
Substitutions count along the parent as printed.
P1: ADGRB3 CUB domain (Homo sapiens); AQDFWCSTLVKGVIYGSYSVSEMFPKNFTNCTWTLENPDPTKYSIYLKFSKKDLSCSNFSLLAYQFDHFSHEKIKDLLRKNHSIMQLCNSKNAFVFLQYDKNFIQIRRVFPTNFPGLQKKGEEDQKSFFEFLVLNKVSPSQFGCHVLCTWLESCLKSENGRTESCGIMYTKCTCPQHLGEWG
P2: SPAST MIT domain, 112-195 (Homo sapiens); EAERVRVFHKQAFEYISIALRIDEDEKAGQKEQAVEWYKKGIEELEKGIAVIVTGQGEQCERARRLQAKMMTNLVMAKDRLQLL; partner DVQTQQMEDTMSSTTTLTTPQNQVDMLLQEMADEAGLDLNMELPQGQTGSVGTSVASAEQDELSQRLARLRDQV
P3: ZYX; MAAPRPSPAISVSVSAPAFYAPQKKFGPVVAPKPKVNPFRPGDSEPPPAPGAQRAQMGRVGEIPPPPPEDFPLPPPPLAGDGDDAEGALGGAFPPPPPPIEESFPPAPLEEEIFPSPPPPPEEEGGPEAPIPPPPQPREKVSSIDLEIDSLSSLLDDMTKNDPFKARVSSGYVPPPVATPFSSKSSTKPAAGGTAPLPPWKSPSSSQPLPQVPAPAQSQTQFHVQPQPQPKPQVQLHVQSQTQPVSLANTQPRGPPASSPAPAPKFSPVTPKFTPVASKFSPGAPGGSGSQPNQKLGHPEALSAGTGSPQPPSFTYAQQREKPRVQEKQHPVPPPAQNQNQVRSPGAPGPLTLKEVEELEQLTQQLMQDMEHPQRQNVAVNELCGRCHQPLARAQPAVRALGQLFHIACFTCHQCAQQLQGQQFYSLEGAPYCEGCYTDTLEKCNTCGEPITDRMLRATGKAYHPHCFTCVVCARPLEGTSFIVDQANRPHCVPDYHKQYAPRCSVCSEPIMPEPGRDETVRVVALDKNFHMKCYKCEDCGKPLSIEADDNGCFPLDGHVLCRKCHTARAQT
P4: ITGA2 cytoplasmic domain peptide (Homo sapiens); WKLGFFKRKYEKM; partner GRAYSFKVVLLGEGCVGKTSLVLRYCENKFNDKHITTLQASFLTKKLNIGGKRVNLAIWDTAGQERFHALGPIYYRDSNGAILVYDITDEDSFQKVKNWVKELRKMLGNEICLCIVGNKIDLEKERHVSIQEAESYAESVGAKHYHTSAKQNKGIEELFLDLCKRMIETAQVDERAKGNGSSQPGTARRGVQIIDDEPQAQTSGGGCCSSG
B1: DISC1 coiled coil 765-835; chain GPWKEDSHIVSAEVGEKCEAIGVKLLHLEDQLLGAMYSHDEALFQSLQGELQTVKETLQAMILQLQPTKEA
P5: SCAP (Homo sapiens); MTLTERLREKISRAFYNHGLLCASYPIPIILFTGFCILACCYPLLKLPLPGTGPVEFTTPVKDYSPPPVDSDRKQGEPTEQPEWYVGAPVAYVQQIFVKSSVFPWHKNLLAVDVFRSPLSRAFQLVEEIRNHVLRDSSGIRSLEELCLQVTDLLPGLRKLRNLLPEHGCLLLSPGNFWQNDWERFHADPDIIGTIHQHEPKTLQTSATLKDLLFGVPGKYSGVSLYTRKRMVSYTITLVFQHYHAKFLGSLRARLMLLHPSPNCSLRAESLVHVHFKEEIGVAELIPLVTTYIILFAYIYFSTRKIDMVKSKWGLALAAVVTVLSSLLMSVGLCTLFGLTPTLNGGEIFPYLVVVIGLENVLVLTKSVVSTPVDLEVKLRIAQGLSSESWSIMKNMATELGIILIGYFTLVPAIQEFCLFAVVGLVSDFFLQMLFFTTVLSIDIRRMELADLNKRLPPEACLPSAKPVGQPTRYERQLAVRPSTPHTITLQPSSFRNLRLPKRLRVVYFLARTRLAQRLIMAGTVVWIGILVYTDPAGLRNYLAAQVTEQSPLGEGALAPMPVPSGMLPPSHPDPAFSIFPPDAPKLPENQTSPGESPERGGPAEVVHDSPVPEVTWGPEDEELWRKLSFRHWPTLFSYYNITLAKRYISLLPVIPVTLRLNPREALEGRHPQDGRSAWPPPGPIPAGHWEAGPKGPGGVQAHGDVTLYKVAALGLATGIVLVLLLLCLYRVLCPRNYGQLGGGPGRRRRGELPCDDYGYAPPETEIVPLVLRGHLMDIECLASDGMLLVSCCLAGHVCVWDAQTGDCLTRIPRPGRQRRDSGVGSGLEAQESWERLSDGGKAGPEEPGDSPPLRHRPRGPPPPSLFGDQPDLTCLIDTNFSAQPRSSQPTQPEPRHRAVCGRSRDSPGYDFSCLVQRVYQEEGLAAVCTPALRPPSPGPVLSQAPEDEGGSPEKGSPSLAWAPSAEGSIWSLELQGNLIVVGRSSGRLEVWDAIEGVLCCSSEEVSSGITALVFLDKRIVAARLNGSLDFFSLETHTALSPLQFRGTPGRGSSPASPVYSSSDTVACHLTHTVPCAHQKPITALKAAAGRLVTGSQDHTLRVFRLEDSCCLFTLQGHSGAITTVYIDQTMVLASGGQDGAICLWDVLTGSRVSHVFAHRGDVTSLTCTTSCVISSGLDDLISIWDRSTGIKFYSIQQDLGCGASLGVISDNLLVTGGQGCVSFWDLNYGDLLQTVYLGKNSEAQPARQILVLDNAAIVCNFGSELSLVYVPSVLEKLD
P6: KSS1 (Saccharomyces cerevisiae); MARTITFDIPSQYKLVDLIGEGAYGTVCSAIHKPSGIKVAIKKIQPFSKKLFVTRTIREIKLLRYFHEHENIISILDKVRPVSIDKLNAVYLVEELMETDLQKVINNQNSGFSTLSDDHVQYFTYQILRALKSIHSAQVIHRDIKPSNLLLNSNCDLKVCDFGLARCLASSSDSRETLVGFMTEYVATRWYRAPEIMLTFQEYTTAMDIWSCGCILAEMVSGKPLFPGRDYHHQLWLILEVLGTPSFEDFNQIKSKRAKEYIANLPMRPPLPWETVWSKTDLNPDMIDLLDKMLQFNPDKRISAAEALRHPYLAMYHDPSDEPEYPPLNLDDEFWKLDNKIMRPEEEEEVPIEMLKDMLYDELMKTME
Sequence of UniProt P35639 (whole entry, looked up): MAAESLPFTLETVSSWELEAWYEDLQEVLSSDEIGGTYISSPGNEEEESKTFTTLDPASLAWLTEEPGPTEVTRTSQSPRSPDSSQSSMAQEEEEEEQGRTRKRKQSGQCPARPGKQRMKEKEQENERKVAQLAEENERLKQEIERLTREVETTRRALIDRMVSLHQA

With `P1 K42A` the Kd was 9.5 µM (C1ql1 globular C1q domain (Mus musculus); ITC; together with: Ca2+ 2 mM).
`P2 H9D` gave a Kd of > 519 µM (CHMP1B residues 126-199 (Homo sapiens); SPR).
`P3 S142A S169C` gave a relative binding of 2.19 (YWHAG; GST pull-down; lysate; relative to: unchanged protein, higher = more binding).
`P4 W1A K2A` gave a relative binding of 24 (RAB21 residues 15-225 (Homo sapiens); fluorescence polarisation; relative to: unchanged protein, higher = more binding).
Under binding, `GGATGCCG (dsDNA 8 bp duplex)` is recorded as “no binding” (FKBP3 1-74 (Homo sapiens, UniProt Q00688); NMR; double-stranded DNA, one strand shown).
The relative binding of `P4 F5A F6A` is reported as 10 (RAB21 residues 15-225 (Homo sapiens); fluorescence polarisation; relative to: unchanged protein, higher = more binding).
`B1 (DISC1 coiled coil 765-835)` has a Kd of 10 µM (DDIT3 (UniProt P35639); ITC; read off a plot).
The signal of `P5 I348F` is reported as 0 (INSIG1 (Homo sapiens); co-IP; read off a plot, together with: 25-HC; higher = more binding).
The Kd of `GAGCTGTATCGTCTTGACTG (dsDNA (Trichomonas vaginalis); 20-mer duplex)` is reported as 0.962 µM (MYB21 40-156 K51A (Trichomonas vaginalis, UniProt Q58HP3); ITC; double-stranded DNA, one strand shown).
For `P6 D318A D321A`, the Kd was > 50 µM (STE7 residues 1-98 (Saccharomyces cerevisiae); GST pull-down).

Repeated from above:
`P3 S142A S169C` gave a relative binding of 2.19 (YWHAG; GST pull-down; lysate; relative to: unchanged protein, higher = more binding).
`B1 (DISC1 coiled coil 765-835)` has a Kd of 10 µM (DDIT3 (UniProt P35639); ITC; read off a plot).
